# Assay results gathered from unrelated publications.
# Numbered parts are unrelated; each lists some results of a single study.

# Sample 1
# Target: Sal-like protein 4, full length isoform A (SALL4, Homo sapiens, UniProt Q9UJQ4, residues 1-1053)
# Sequence of UniProt Q9UJQ4 (whole entry, looked up): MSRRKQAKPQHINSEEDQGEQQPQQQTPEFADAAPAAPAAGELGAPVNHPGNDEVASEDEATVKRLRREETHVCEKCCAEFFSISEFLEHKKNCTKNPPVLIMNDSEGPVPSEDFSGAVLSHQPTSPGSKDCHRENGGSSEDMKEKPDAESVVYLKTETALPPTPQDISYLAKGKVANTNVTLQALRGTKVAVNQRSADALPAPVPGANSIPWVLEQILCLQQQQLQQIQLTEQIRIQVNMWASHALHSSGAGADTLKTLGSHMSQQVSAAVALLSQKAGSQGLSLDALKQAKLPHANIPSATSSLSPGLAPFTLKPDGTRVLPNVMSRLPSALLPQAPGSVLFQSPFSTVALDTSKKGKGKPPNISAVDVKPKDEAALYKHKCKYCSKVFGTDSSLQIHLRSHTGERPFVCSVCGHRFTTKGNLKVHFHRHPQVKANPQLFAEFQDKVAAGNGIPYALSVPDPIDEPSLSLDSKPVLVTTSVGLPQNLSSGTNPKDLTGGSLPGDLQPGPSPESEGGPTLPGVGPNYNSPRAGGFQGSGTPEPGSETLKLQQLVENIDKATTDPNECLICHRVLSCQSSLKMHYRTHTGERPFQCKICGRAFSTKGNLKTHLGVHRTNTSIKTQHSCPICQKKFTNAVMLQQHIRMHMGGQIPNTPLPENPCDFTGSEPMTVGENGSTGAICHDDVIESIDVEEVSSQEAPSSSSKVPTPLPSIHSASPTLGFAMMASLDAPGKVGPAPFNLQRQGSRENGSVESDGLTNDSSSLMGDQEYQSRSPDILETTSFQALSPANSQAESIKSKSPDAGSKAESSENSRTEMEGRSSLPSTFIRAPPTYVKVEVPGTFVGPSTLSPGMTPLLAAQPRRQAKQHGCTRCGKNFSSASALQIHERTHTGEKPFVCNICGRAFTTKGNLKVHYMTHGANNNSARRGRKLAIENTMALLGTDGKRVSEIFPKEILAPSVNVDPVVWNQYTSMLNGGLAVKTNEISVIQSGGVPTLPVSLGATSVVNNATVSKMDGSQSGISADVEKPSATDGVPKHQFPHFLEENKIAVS
# Technique: universal PBM
# Form: double-stranded DNA, one strand shown
# Medium: in vitro
# Concentration: 600 nM
# Setting: 8-mer, flanks averaged, mean of replicates
# Direction: higher = stronger binding
Oligonucleotide,E-score
GCGTCAAC,-0.239
ATTATTGA,0.421
AGACAGAG,0.0581
AACGAACT,0.0532
CAGGCTCC,-0.255
ACGTTCGG,-0.267
CGTAGACA,-0.0681
CGAATCGA,0.142
CTTTCAGC,-0.0744
GTTCTTAA,0.0989
ATCTAATG,0.128
GGAGGACC,-0.363
ATCACCCG,-0.145
CCGGTCTC,-0.26
CAAGTCAA,0.0231
CCATCTTA,-0.0633
CAAATGGG,-0.00322
CCGGCGAG,-0.334
AGTGAGTC,-0.164
TCCTCGCA,-0.128
GTTTAATA,0.37
GGATTCCA,0.0416
AGAGTATA,0.192
CCGCCCAG,-0.314
AGGACCGA,-0.0849

# Sample 2
# Target: Ras GTPase-activating protein-binding protein 1, full length (G3BP1, Homo sapiens, UniProt Q13283)
# Sequence of UniProt Q13283 (whole entry, looked up): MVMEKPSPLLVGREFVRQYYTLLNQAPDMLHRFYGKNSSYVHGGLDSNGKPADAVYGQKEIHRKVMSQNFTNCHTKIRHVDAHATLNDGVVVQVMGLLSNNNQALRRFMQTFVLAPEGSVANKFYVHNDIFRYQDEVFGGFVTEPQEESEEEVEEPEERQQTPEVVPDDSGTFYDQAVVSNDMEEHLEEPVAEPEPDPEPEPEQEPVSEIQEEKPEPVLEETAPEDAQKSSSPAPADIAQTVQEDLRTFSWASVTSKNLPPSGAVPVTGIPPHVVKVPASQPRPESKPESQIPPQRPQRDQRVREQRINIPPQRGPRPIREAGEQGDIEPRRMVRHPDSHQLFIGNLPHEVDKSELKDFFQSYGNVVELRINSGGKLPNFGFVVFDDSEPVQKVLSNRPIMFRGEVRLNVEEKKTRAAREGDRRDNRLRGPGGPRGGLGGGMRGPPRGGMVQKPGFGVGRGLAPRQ
# Technique: RNA Bind-n-Seq
# Form: RNA
# Medium: in vitro
# Concentration: 200 nM
# Setting: whole 134-nt RNA, ends assumed
# Added: 150 mM KCl
# Reference: input library
# Direction: higher = stronger binding
# Shared flanks, not repeated: GGGAGUUCUACAGUCCGACGAUC … UGGAAUUCUCGGGUGUCAAGG
Oligonucleotide,log2 enrichment
GUCCUGUGCUACACAUCGUAUGUACCGAAUCGGCCCCCCGGGCCCCCCGGGCCCCCCGGAAAGUAUUAUGUUACGCCGUUCGGAUCUGCA,-0.353
CAAGUCCUGUGCUACACAUCGUAUGUACCGAAUCGGGGAGGGGUGGGGAAAGGGGAAAGUAUUAUGUUACGCCGUUCGGAUCUGCACUUC,1.48
CAAGUCCUGUGCUACACAUCGUAUGUACCGAAUCGGUUUUUGGUUUGGUUUUUGGAAAGUAUUAUGUUACGCCGUUCGGAUCUGCACUUC,-0.872
CCUCAAGUCCUGUGCUACACAUCGUAUGUACCGAAUCGGUUGGGGUUGGUUGGAAAGUAUUAUGUUACGCCGUUCGGAUCUGCACUUCCA,-0.0573
UUCCAACAGUUAUGGGAUCCCAGAACCUGCUCAUGCAUACGCUCAACCUCAGACCACAACUCCUCUACCUGCAGUUUCCGGUUCUCCUGG,0.259
GUCCUGUGCUACACAUCGUAUGUACCGAAUCGGGAAAAAAAGGGUUUGGGUUUUUGGGAAAGUAUUAUGUUACGCCGUUCGGAUCUGCAC,-0.483
ACCAUGCAGGUGGGCAUCUUUGGGAAGUGGGGCAAGGGGGGGAUAGGGAGGGGGGUAACACUUUGGGAACAGGUGGUCCCAGGUCGUUUU,1.24
UUAGAAGAACCCGAAGAACCUAAAGUGCUAACACCAGAAGAACAAUUAGCAGAUAAACUGCGGCUAAAGAAAUUACAGGAAGAGUCAGAC,0.54
CUGUGCUACACAUCGUAUGUACCGAAUCGGGUUUUUUUGGGUUUUUUUGGGAAAAAAAGGGAAAGUAUUAUGUUACGCCGUUCGGAUCUG,-1.27
GUCCUGUGCUACACAUCGUAUGUACCGAAUCGGGAAAAAAAGGGUGGGUUUUUUUGGGAAAGUAUUAUGUUACGCCGUUCGGAUCUGCAC,-0.247
CCUCAAGUCCUGUGCUACACAUCGUAUGUACCGAAUCGGCGGGGCGGGCGGGGAAAGUAUUAUGUUACGCCGUUCGGAUCUGCACUUCCA,1.11
UGGGAGGUGGAUUUUGUUUAUUUUUUUAGCUCAUUUCCAGGGGUGGGAAUUUUUUUUUAAUAUGUGUCAUGAAUAAAGUUCUUUUUGAAA,0.211
CCUCAAGUCCUGUGCUACACAUCGUAUGUACCGAAUCGGUUGGGUUGGGUUGGAAAGUAUUAUGUUACGCCGUUCGGAUCUGCACUUCCA,-0.283
AGUCCUGUGCUACACAUCGUAUGUACCGAAUCGGGAAAAAAAGGGUUUUUGGGUGGGAAAGUAUUAUGUUACGCCGUUCGGAUCUGCACU,-0.0593

# Sample 3
# Target: RNA binding protein fox-1 homolog 2, RRM domain, GST-SBP tag (RBFOX2, Homo sapiens, UniProt O43251-10, residues 100-194)
# Technique: RNA Bind-n-Seq
# Form: RNA
# Medium: in vitro
# Concentration: 365 nM
# Setting: natural RNA segment, single round, ends assumed
# Reference: no-protein control
# Direction: higher = stronger binding
# Shared flanks, not repeated: GGGAGUUCUACAGUCCGACGAUC … UGGAAUUCUCGGGUGCCAA
# Residues (chain): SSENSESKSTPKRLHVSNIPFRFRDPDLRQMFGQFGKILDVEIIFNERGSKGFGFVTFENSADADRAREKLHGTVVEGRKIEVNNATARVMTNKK
Oligonucleotide,RBNS enrichment (R)
GGAGACUCAGAGAUAUAGAAAGCAGCUGAAAUUUAAGGGAGAUAAAGCCUGCACUGCACCAAAGCUACGGGUCCCUGUGUUUCCUCUAUUCAGUGAUGUCAUCAACCUCA,0.441
AAAGACAGACUGUCCCUAUGCUUGUGCAGCUUACAAUCUAUUUAACUAUUAGAGGCCCUGUGAGAUGUAGGCAGUUAUUUACAGAUGAGAAAACUAACACAGCAGUGGCA,1.44
GGCCCCCAUGAAUGUCCUCGGAAGGGGGUGGCUCCUGGUAGCAUCCUUUUCCUUCACCAUCUAUGGGAUAUUAGGGGCAGAAUCUGCCACUUCUUGCCCAGGAGUGUGCA,1.09
GGCAUUCUGGUGCACUAACUUGUGCACACACCAGCUCCAGCCUUUGCAGAAUGACAGCUCUUUGUUUCUGAAGUAACCAGCACACCACACUCAUGUUUAAAAGGACAAAG,0.372
UUGUCUUGGUCUGAUAAUGAUAAGAAGUCAAGGAUUGGCAGAGAAAAUACUAAACGCCAAGAGUUGAGCCUGUGGGUCUCUCCAUAAGAGUUUUAAAACUCUUGCCAGUU,0.646
AAGAGACAGCAGCUCCUGGUCAACCACCUUAGUUAGAUAAUCUUUUUUGAAAGCUUCCUAGCUGGAGGUAUGAUCAGAAAACCAAUUUACUGAAAAACUGCACAAGAAGG,0.436
AGUAAUAUAAACUGUAUUAAUAAAAUCCAUUUACUGUGUAAUACACGAGUUUAAAAAUUAAGAGCGAUUAGCUGUUCACUUUGGUAACAGGUAGUUAAGUGUCACACAAG,0.339
GCCUACCUUGAGGUCUCAUGAAAGCUCCUGGAGCUGUGUGGUUGUCUUUGGUGCUGUUAACCCUUGGCUCCAUUUGACCAUCAAUCUGAGCAAUGAGCAAAGCAAUAUCA,0.376
GGAUUUCCCAGUGAAAUCAGAUUUGGAAAGAAAAGAGAGAUAGUUCUCCGGGAUGCAUAGAUUCAUGAUUUAUCUACUUUUGAAAUGUGGGCUUCUUCAUCUUUACGUUC,0.512
CACAAUGCUGUGCAAAGAUUCAAGAGGAGGCAGUCACUGUACUUUGCCUGCUUUUGGGCCUAGAUAACGUCACUGUCUACAAAAAGCUAACUGCUUAGGUUUGAAAAGGC,0.235
CUGAAUCAUCUAAAGCUAGGUCACUGUGUUGUGUAAAGGGGAGACAGGACUGACAGCAUCCCUUAACAUAAUAUUCUCAUGGUUCUCUGGGUUGGAAGAAAUAUAACUGU,0.722
CCUCCAAAGGUUGAGAGCAAGAAUUGUUUUUUUCUUGGAUAUCAAAGGGAUUAUCACAGCGCAAUCAUUGUCUACAACAACGUGUACACUCAAUGCCUGGGUUACAUAGG,0.301

# Sample 4
# Target: RING finger protein unkempt homolog, zinc fingers 1-6, GST-SBP tag (UNK, Homo sapiens, UniProt Q9C0B0, residues 30-357)
# Sequence of UniProt Q9C0B0 (30-357, looked up): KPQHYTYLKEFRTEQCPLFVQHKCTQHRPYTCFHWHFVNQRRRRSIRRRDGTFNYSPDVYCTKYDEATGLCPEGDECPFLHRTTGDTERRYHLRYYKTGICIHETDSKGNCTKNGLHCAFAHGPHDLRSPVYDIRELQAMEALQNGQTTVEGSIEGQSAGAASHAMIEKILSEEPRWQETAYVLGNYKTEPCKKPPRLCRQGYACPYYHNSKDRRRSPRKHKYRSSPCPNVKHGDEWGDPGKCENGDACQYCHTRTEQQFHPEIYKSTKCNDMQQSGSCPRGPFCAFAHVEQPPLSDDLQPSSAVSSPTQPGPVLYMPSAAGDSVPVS
# Technique: RNA Bind-n-Seq
# Form: RNA
# Medium: in vitro
# Concentration: not given
# Setting: RNA with constant flanks, human and mouse sites, ends assumed
# Reference: input RNA pool
# Direction: higher = stronger binding
# Shared flanks, not repeated: GGGAGUUCUACAGUCCGACGAUC … CAACAGAGGAUUGAGCAUCA
Oligonucleotide,bound/input enrichment [ratio]
UCUCCGAAAUCUGAUAUUUCUCCACUCACCCCACGAGAGUCCUCACCUUUAUAUUCACCUGGCUUUUCAGAUUCUACCUCUGCAGCUAAAGAGACUGCAGCAGCUCACCAAGCCUCCUCU,0.427
ACCGAUUUAUAUGACAUAAAACGUGCAGUUGUUCAUACCCAUCUUCUUAACCCUGAGUGGUUAGUGAAUUACUUUGGGUCCUUAUCAGUUGAAGAUUCCCUAGAAUGCCUCAGAGCCAUG,0.171
CACUCUUCUCCCUGUUUCUAUUCCCUGACCCCUGAGUAGCUGUAGUUUCCCCUGUAGCUUUAGCUAAAUAUCAAGCAACUCCACAAGCUUCUUAAGAAGCCAUGGACACCAAGUAGCACA,2.17
AGUCUAUGUUUUGCACUGCUAACUAUGAUGAGGGUUUAAAAAAAUGCUUCUUCAGGGUCCUUUCACUGAGGACCUAUGCAGUCUACUUAAUGCUGUGAAUUACAUUUUUCAAAUGUUUAA,0.154
AACAAGACAGACUUGCUUGAGGAGAAGGUGCAAAUUGUGAGCAUCAAAGACUAUUUCCUAGAAUUUGAAGGGGAUCCCCACUGCUUAAGAGACGUCCAAAAAUUCCUGGUGGAAUGUUUC,0.161
GAAGGUCUUGAAAUAGCAAUGAAACAGGCCCUAAGGAAAUCUGCUUGUCGAGUUUUUGCUAUGGAGGCUUUCAACUGGCUUCUGUGUAAUGUCAUCCAAACCACUUCUCUCCAUGAUAUU,0.206
CCAGUAUGUGUGUGCAUUAGUCACAUUCCUCUCUGUUCUGUUGAAGGAAAAAGAGACAUUUUAACCCUUUUAAGGUUGACUUUAUUUUAUGUUAUUUGGUUGCAUGAAGUUGCCCUUAAU,0.174
GUUUUAUUACUUCUUGGAGAUGAAUCCAUGCAGAAGUUAUUUGAAGGAGGAAAAGGUAGUGUAUUUCAAAGGGUACUCUCUUGGAUCCCAUCAAAUAACCACCAGCUACAGCUUGCUGGA,0.133
AAUCAAGGUUACCAUUAUAAUUUAUCUCUCUAUUUUGGGCCUUCUGCUUCUGUACAUGGUAUAUCUUACCUUAGUUGAGCCCAUCCUGAAGAGGCGCCUCUUUGGACACUCCCAGCUGUU,0.348
CUGGAUACAGUGGAGGAUGACAUGAGCAUCAGUGUGGAGAAGAAGAUCCCACUGCUGUGUAACUUCCACACUUUCCUCUAUGACCCAGAGUGGCGGUUCACUGAGAGCAAGGAGAAGGAC,0.156
AAAUAUAUGAAAAGUAGAACUAUUCUGCAGCAGCACAUGAAGAAAUGUGGUUGGUUCCAUCCUCCUGCCAAUGAGAUUUACAGAAAGAAUAAUAUUUCUGUCUUUGAGGUUGAUGGGAAU,0.299

# For quick reference, copied from above (sample 2):
Oligonucleotide,log2 enrichment
CAAGUCCUGUGCUACACAUCGUAUGUACCGAAUCGGGGAGGGGUGGGGAAAGGGGAAAGUAUUAUGUUACGCCGUUCGGAUCUGCACUUC,1.48
CAAGUCCUGUGCUACACAUCGUAUGUACCGAAUCGGUUUUUGGUUUGGUUUUUGGAAAGUAUUAUGUUACGCCGUUCGGAUCUGCACUUC,-0.872
CCUCAAGUCCUGUGCUACACAUCGUAUGUACCGAAUCGGUUGGGGUUGGUUGGAAAGUAUUAUGUUACGCCGUUCGGAUCUGCACUUCCA,-0.0573
UUCCAACAGUUAUGGGAUCCCAGAACCUGCUCAUGCAUACGCUCAACCUCAGACCACAACUCCUCUACCUGCAGUUUCCGGUUCUCCUGG,0.259
GUCCUGUGCUACACAUCGUAUGUACCGAAUCGGGAAAAAAAGGGUUUGGGUUUUUGGGAAAGUAUUAUGUUACGCCGUUCGGAUCUGCAC,-0.483
ACCAUGCAGGUGGGCAUCUUUGGGAAGUGGGGCAAGGGGGGGAUAGGGAGGGGGGUAACACUUUGGGAACAGGUGGUCCCAGGUCGUUUU,1.24
UUAGAAGAACCCGAAGAACCUAAAGUGCUAACACCAGAAGAACAAUUAGCAGAUAAACUGCGGCUAAAGAAAUUACAGGAAGAGUCAGAC,0.54
CUGUGCUACACAUCGUAUGUACCGAAUCGGGUUUUUUUGGGUUUUUUUGGGAAAAAAAGGGAAAGUAUUAUGUUACGCCGUUCGGAUCUG,-1.27
GUCCUGUGCUACACAUCGUAUGUACCGAAUCGGGAAAAAAAGGGUGGGUUUUUUUGGGAAAGUAUUAUGUUACGCCGUUCGGAUCUGCAC,-0.247
CCUCAAGUCCUGUGCUACACAUCGUAUGUACCGAAUCGGCGGGGCGGGCGGGGAAAGUAUUAUGUUACGCCGUUCGGAUCUGCACUUCCA,1.11
